# Published values gathered from unrelated publications.
# Numbered parts are unrelated; each lists some results of a single study. Values joined by “and” are separate records of one study, mostly repeats; a detail may differ.
# Sequence of UniProt P10721 (whole entry, unmodified, looked up): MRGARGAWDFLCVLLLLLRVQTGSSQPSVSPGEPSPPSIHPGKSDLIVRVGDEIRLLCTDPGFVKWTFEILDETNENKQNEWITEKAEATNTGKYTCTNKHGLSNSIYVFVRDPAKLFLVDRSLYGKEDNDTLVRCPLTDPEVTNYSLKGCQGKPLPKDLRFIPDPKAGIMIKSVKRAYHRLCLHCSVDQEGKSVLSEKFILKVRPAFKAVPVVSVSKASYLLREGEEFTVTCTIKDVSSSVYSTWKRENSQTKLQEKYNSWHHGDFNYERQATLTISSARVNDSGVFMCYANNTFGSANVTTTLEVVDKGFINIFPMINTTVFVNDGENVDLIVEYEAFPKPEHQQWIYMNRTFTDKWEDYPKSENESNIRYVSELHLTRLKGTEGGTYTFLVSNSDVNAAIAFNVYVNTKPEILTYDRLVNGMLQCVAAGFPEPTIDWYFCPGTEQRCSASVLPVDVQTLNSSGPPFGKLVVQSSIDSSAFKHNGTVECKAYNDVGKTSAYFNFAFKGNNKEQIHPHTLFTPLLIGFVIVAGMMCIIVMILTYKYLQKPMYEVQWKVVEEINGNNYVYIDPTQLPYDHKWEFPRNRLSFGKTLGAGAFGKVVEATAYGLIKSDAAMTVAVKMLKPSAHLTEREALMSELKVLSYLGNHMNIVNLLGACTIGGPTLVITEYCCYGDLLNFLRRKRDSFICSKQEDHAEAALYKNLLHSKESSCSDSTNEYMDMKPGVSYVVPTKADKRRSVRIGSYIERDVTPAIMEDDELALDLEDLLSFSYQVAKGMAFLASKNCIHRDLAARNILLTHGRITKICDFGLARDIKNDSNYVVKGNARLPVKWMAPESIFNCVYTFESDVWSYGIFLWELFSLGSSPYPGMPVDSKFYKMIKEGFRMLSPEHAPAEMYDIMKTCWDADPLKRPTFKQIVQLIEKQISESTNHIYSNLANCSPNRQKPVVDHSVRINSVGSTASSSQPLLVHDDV
# Sequence of UniProt P52564 (whole entry, looked up): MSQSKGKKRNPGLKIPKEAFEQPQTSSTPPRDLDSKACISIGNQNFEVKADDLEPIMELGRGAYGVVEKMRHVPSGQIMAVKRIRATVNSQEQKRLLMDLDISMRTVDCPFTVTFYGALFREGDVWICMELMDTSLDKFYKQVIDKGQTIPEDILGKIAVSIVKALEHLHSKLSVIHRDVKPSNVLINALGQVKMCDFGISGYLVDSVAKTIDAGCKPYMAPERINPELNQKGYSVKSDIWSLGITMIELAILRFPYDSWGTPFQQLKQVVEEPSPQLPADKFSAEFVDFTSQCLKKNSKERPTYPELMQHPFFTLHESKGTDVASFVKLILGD
# Sequence of UniProt Q6ZWH5 (whole entry, looked up): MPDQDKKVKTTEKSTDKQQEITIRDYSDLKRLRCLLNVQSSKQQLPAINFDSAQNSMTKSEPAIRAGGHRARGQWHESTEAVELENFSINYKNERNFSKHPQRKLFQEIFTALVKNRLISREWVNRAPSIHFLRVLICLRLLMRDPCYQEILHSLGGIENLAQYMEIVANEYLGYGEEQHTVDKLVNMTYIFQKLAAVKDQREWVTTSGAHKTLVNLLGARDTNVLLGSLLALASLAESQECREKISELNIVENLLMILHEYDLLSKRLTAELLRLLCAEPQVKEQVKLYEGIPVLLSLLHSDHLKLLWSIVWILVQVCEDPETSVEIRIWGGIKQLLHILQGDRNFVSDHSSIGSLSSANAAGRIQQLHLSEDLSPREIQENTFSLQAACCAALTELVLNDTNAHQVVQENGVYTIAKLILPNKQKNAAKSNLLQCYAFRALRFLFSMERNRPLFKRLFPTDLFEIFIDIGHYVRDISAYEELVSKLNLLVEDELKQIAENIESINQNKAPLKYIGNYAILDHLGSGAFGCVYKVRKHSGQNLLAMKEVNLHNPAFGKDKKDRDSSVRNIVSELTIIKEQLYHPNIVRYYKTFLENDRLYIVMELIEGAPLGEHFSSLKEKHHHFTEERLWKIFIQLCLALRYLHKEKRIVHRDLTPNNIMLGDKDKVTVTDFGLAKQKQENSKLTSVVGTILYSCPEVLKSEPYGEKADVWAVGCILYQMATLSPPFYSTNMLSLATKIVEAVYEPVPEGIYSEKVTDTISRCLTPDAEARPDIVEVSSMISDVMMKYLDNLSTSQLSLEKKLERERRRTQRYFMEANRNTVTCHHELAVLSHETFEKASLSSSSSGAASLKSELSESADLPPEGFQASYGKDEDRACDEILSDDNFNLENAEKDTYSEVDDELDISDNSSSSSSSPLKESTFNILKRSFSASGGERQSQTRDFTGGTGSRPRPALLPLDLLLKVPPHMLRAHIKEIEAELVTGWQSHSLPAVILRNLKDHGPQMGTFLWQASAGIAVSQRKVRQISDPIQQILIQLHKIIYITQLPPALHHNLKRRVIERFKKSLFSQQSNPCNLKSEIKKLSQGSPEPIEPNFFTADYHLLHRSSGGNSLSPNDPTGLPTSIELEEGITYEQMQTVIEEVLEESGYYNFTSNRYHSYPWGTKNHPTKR
# Sequence of UniProt O15264 (whole entry, looked up): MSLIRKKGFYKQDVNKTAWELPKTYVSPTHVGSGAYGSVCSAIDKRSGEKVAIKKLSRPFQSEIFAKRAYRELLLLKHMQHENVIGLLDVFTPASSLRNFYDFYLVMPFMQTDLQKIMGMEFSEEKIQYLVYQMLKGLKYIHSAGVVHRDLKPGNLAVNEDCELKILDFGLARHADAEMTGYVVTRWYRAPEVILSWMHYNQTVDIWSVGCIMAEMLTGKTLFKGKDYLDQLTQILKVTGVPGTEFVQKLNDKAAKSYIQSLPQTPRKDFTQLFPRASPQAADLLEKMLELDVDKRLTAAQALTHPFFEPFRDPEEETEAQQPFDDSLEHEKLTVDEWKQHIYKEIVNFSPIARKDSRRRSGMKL
# Sequence of UniProt Q02779 (whole entry, looked up): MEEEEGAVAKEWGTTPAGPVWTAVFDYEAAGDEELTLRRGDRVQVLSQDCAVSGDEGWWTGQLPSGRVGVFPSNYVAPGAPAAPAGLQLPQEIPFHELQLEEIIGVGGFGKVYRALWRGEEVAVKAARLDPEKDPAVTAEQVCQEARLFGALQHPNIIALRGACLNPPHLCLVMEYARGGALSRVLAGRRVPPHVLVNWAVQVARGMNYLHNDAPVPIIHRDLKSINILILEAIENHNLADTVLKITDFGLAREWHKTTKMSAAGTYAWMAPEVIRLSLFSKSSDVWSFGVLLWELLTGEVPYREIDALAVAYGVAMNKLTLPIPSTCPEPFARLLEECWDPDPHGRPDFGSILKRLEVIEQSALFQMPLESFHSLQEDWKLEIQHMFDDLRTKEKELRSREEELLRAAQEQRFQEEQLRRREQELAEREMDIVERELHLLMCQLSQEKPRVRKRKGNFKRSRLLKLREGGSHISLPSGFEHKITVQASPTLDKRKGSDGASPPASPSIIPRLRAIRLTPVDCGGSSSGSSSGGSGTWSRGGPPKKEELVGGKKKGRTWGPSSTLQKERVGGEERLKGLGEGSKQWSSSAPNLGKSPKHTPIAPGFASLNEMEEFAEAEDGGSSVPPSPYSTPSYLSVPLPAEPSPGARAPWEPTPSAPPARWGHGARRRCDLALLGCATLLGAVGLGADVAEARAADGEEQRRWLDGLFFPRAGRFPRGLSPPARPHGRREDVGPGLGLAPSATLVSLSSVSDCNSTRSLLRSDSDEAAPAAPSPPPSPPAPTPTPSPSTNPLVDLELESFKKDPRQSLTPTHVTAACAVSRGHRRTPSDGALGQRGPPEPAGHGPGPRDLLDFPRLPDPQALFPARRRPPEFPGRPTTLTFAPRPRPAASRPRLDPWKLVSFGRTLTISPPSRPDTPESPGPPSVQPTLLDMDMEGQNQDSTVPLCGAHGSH
# Sequence of UniProt P54762 (whole entry, looked up): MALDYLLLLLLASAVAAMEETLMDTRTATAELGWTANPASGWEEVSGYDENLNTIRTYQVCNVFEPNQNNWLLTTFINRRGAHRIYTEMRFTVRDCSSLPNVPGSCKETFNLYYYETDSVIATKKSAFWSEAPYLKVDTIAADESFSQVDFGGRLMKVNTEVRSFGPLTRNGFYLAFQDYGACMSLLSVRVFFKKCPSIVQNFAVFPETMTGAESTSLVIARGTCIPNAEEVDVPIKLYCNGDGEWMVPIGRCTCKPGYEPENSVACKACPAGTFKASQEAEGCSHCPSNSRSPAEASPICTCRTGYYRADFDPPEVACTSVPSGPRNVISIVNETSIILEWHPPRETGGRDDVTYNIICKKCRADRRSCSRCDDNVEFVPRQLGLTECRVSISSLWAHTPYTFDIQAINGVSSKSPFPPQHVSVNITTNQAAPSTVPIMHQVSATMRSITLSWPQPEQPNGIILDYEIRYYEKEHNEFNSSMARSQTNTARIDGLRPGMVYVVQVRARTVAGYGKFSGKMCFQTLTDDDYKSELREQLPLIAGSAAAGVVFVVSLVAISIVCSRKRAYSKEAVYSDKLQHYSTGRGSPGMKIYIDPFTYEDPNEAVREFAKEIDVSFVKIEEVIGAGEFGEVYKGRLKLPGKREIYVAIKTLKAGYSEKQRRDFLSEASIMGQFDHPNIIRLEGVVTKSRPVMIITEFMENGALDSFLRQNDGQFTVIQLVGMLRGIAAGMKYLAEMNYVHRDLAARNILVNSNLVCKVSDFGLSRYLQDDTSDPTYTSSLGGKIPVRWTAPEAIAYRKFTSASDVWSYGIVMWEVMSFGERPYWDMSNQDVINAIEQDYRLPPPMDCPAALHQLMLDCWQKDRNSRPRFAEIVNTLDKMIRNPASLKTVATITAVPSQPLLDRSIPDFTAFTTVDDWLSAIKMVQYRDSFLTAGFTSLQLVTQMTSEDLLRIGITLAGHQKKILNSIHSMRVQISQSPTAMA

# Series 1
# SMILES: FC(F)(F)c1ccc2c(c1)nc(-c1cccnc1)n2C1CC1
# Read-out: cell-free assay
# Technique: competition with immobilised ligand
# Tested at: 1 µM
target,remaining binding [%]
"EGFR (Homo sapiens, UniProt P00533, L861Q)",100
"KIT (Homo sapiens, UniProt P10721, D816V)",100
"KIT (Homo sapiens, UniProt P10721, V559D/V654A)",100
"RIPK1 (Homo sapiens, UniProt Q13546)",100
"EPHB1 (Homo sapiens, UniProt P54762)",100
"ROCK1 (Homo sapiens, UniProt Q13464)",100
"Tyrosine-protein kinase ABL1, phosphorylated (ABL1, Homo sapiens, UniProt P00519, M351T)",100
"TNK2 (Homo sapiens, UniProt Q07912)",100
"MAP2K2 (Homo sapiens, UniProt P36507)",100
"FGFR4 (Homo sapiens, UniProt P22455)",100
"NEK10 (Homo sapiens, UniProt Q6ZWH5)",100
"PAK2 (Homo sapiens, UniProt Q13177)",100
"STK3 (Homo sapiens, UniProt Q13188)",94
"ERBB3 (Homo sapiens, UniProt P21860)",77
"SRPK2 (Homo sapiens, UniProt P78362)",93
"Ribosomal protein S6 kinase alpha-2, C-terminal kinase domain (RPS6KA2, Homo sapiens, UniProt Q15349)",100

# Series 2
# Species: mouse
# Sample: microsomes or S9
# Tested at: 2 µM
# Time: 0.5 h
Structure (SMILES),remaining compound [%]
COC(=O)c1c(CC(=O)N2CCCC2C2CCCCC2)[nH]c(C(C)=O)c1C (stereo not shown),0.243
CC(=O)c1cccc(NC(=O)c2ccc(C(C)(C)C)cc2)c1,0.817
Cc1cccc2c(O)c3nc(C)n(-c4ccccc4)c3nc12,55.2
O=C(COc1ccc2c3ccccc3n(C(=O)c3ccc(Br)cc3)c2c1)N1CCOCC1,9
CC(C)c1cc(C(C)C)c(S(=O)(=O)NCc2ccc(S(N)(=O)=O)cc2)c(C(C)C)c1,1.04
OC1CCC(Nc2nc(-c3ccncc3)nc3c2CCC3)CC1 (stereo not shown),38.4
Cc1nc(-c2ccc3c(c2)CCN3C(=O)Cc2c[nH]c3ccccc23)cs1,13.8

# Series 3
# Structure (SMILES): O=S(=O)(NCCNC/C=C/c1ccc(Br)cc1)c1cccc2cnccc12
# Read-out: enzyme activity
# Action: inhibitor
# Tested at: 0.5 µM
# Reference: control
target,remaining activity [%]
"CHEK1 (Homo sapiens, UniProt O14757)",90.8
"MAPK13 (Homo sapiens, UniProt O15264)",101
"NEK4 (Homo sapiens, UniProt P51957)",96.9
"MAP3K10 (Homo sapiens, UniProt Q02779)",85.5
"PRKCD (Homo sapiens, UniProt Q05655)",38.1
"MAP2K6 (Homo sapiens, UniProt P52564)",81.3
"LYN (Homo sapiens, UniProt P07948)",126
"IRAK4 (Homo sapiens, UniProt Q9NWZ3)",110
"CSNK2A1 (Homo sapiens, UniProt P68400)",97.8
"LRRK2 (Homo sapiens, UniProt Q5S007)",86.2

# Other studies, line by line
SMILES,cell line,tested at,time,together with,measurement,value
O=C1CCC(N2Cc3cc(C4CCN(Cc5ccccc5)CC4)ccc3C2=O)C(=O)N1 (stereo not shown),Jurkat,100 nM,24 h,"CD3/CD28 beads, 1:4",IL-2 level,209 pg/mL and 135 pg/mL and 173 pg/mL

# Repeated from above (series 2):
Structure (SMILES),remaining compound [%]
CC(=O)c1cccc(NC(=O)c2ccc(C(C)(C)C)cc2)c1,0.817
O=C(COc1ccc2c3ccccc3n(C(=O)c3ccc(Br)cc3)c2c1)N1CCOCC1,9
COC(=O)c1c(CC(=O)N2CCCC2C2CCCCC2)[nH]c(C(C)=O)c1C (stereo not shown),0.243
OC1CCC(Nc2nc(-c3ccncc3)nc3c2CCC3)CC1 (stereo not shown),38.4
Cc1nc(-c2ccc3c(c2)CCN3C(=O)Cc2c[nH]c3ccccc23)cs1,13.8
